Assay results gathered from unrelated publications.
Numbered parts are unrelated; each lists some results of a single study.

Study 1
Target: Hepatocyte nuclear factor 3-alpha (Foxa1, Mus musculus, UniProt P35582, residues 1-468, full length assumed)
UniProt P35582, sequence (whole entry, looked up): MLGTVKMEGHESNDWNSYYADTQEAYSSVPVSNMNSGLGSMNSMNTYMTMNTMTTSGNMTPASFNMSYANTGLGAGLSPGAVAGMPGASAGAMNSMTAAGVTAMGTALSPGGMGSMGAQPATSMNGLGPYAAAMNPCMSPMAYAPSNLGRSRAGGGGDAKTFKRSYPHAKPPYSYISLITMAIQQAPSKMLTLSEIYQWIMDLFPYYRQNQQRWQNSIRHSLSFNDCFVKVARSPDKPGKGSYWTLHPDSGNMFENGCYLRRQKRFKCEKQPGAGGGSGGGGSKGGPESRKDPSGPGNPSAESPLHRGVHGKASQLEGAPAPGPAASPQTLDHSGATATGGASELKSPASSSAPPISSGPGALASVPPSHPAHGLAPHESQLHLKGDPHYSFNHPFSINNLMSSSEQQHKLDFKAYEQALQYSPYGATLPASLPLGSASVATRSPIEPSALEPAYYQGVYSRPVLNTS
Method: EMSA with sequencing
Molecule type: double-stranded DNA, one strand shown
Medium: in vitro
Concentration: 10 and 20 nM
Setting: whole designed probe, mean of two concentrations, ends assumed
Reference: negative control set to 0
Direction: higher = stronger binding
For `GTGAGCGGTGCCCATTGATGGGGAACCCTTGTTATTTGCAGGTATCCAAATGTCTGCATGTGGGAGCATTCCTTGTGGATTAGGGTGTTAGTGTCTAGGAGTCTCCTCTTTTATGAAATGCAATCTTTCTTTGAGCACAATTGCAACATCAGCTGTGAAAATTACCTAAATGTTTCCCAAGGATAAGTGGCTTACGTCAGAGCCCTGAGGCTACAGGATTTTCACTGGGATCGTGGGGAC`, “normalised bound fraction” read -0.0493 ratio.
For `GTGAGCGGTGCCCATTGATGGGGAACGTAAAGCCAGTTACTTTTGTTATGTTTATGAATTCCTAGGCCTCTTGACAAACACTGAGGTTCTCAAACATTGGCAAACACAAGTCACATTAGGTAATCTTACAAATTCTTGGCCTTAGTTCCATATATTTTATTCTGAACAAATAGCCCTTAAGTCAAAATTGAGAAACAATGATTAGTAATAAGTTTTTACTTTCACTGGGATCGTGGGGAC`, “normalised bound fraction” read 0.206 ratio.
`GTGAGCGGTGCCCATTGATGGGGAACATCTTCCCCCTCTTCCTTGCCCCACCAGCTCACCTTCCCGGGTTATTTGCACAAAGGAAAATAAATAAAGCCGGCATTCGTTAACCCTCTTCTGGCGCAAACTGCTGTTTGCTCTGGATCTAACATGGTCCTTTGGCGACGCCAGGCTCCGGGAGAGCAAAGCACCGTGTCAGGGCCATGATCCGGGCTCGCCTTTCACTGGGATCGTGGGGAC`: “normalised bound fraction” 0.365 ratio.
`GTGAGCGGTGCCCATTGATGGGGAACATGTGCTAAAAATACAAGACTTGCTTACGCAGAGAGCCGGGAGCTATGTTCCAGTGAGGGTGGAAACAAAAGCCTCAGTATAAGACTGTCAGGTGTTTACACTTGCTCATGTGGCAACACGAGGAAGGGTGTGGTTTGCTGGACTCCACATGCTGAGGCTCAAAGTAGAAATCACTGATCTTATGTCACATATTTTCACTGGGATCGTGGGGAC` — result for “normalised bound fraction”: 0.383 ratio.
For `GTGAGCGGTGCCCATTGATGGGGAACATCTTCCCCCTCCTGTCTCCCTCACCAGCTCACCTTCCCGGGTTATTTGCAGATAGGAAAATAAATAAAGCCGGCATTCGTTAACCCTCTTCTGGCGCAAACTGCTGTTTGCTCTGGATGAATCATGGTCCTTTGGCGACGCCAGGCTCCGGGAGAGCAAAGCACCGTGTCAGGGCCATGATCCGGGGTGGCCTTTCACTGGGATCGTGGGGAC`, “normalised bound fraction” read 0.33 ratio.

Study 2
Target: Histone acetyltransferase KAT6A, winged helix 1, GST fusion (KAT6A, Homo sapiens, UniProt Q92794, residues 1-85)
Method: protein binding microarray
Molecule type: double-stranded DNA, one strand shown
Medium: in vitro
Concentration: not given
Setting: 8-mer, flanks averaged, mean of 2 arrays, mostly near background
Reference: not given
Direction: higher = stronger binding
Construct (chain): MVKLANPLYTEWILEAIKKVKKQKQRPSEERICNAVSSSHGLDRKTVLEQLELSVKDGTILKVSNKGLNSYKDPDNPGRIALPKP
`CTAGGCCA` has an E-score of -0.0581.
`CCGTTGGC` has an E-score of 0.282.
`AAATATTT` has an E-score of -0.105.
The E-score of `CTAAATAG` is reported as -0.135.
With `CATGGTCA` the E-score was -0.0113.
`CGGCATCC` gave an E-score of 0.271.
The E-score of `AGGAAAAT` is reported as -0.206.
With `CCCGCCTA` the E-score was 0.287.
`AACTGGGC` gave an E-score of -0.218.
`CCTGCAGG` gave an E-score of -0.203.
With `CCTATAAG` the E-score was -0.114.
With `TCCTTACA` the E-score was -0.151.
With `AAAACTAA` the E-score was -0.153.
The E-score of `AGCCTACA` is reported as -0.252.
`GCCTGAGA` gave an E-score of -0.00502.
The E-score of `GAATACGA` is reported as -0.0893.
For `ACAGAGTA`, the E-score was -0.1.
With `CACTGCGC` the E-score was 0.379.
`ACAGTTAG` has an E-score of 0.0364.
`AACGTATA` has an E-score of 0.0499.
`ACCAGTCC` has an E-score of -0.104.

Study 3
Target: RNA binding protein fox-1 homolog 2, RRM domain, GST-SBP tag (RBFOX2, Homo sapiens, UniProt O43251-10, residues 100-194)
Method: RNA Bind-n-Seq
Molecule type: RNA
Medium: in vitro
Concentration: 365 nM
Setting: natural RNA segment, single round, ends assumed
Reference: no-protein control
Direction: higher = stronger binding
Target sequence (chain): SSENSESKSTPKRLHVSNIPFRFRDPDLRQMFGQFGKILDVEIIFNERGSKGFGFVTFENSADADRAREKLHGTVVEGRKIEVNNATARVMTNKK
For `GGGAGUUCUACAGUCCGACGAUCGUGCUCAUCCCCUUCCCUCCCGCUGCCCUCGGCGCCGCACUGUCAGCUCUGGGGCUGGCUGUCCUCCGCUCUGCGCCUGUCAGGCAGGGCACGUGCUCACAGCCCUGGGUUGGAAUUCUCGGGUGCCAA`, “RBNS enrichment (R)” read 1.57.
`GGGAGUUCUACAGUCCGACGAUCAGAUUUCAAGGAAGAGUGAUUAUUUGAUGAAUGCUAUGGGAAUGGCCUCUUCUCUUGGAGUUCUGAGGCCUGGGGAUGCCCAGGAACACUGGGCACCUGCUGCUGUUAGGUGGAAUUCUCGGGUGCCAA` — result for “RBNS enrichment (R)”: 1.39.
Under “RBNS enrichment (R)”, `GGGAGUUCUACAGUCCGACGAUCGAGCGUUAUUAACCCAAAGCAGAACAAUGGUGCCAAUUUGAUUAUUAACUUAAAAAAAUAUACACUGCUUCCCAUAAACUGCUAGUUCAUCUCUCGGUACAAAGGAGUUAUGGAAUUCUCGGGUGCCAA` is recorded as 0.261.
Under “RBNS enrichment (R)”, `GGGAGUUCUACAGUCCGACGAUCUGUGUUCUGUGCUUUACACUGACAGAACCUGGGUUUUCAGUUGGCAAUCAUGGAAAGCAUGUUGUGUGGCUCUGAUCCUAGUAUUUGGGAAACAGAGACAGAAAGGUUAGUGGAAUUCUCGGGUGCCAA` is recorded as 1.69.
Under “RBNS enrichment (R)”, `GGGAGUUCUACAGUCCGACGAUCGACACAUGUAAUGAAGGUCACAGUCCACAGGUGACAGAGAAAUCCAAACUGUUGAUUACAGGUGCACUACAGGUAUGCUCUUUCAGUCUAUCUGGGGGCACAUAGGUGAGUGGAAUUCUCGGGUGCCAA` is recorded as 0.32.
For `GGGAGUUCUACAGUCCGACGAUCUUUUCUGAUAAUUAUUUUUGCCUGUCAUCCCAAAAACGUAUUGACAUGCGUGUAUAUUACCUGUGAGUGAGAGUUCUUAGAAACUUGGCCAGAGAGGAUAAAGGGGAGAGUGGAAUUCUCGGGUGCCAA`, “RBNS enrichment (R)” read 0.661.
`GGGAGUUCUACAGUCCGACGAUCAUGGCCCAGUAUCCUUGGUUGUGGAUAGGGUCAUCCCUGGCUCCUCACCCAGCACCCAGCUUAACCCUGCCACCCCACACUCCUGGGAGCACUGGGCUGAGGGGGUCUCAUGGAAUUCUCGGGUGCCAA` — result for “RBNS enrichment (R)”: 0.39.
`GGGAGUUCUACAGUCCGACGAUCAGCUUUACAGAAAAUCAUUGUAAGACAAUUUAUUAAUUUGAGAAAGUCACCUUGACAGUUCUUUGCACACAAGUUUUACACCUCUCUGGAUUCGAAGUUUGUAUUGUAUUUGGAAUUCUCGGGUGCCAA` — result for “RBNS enrichment (R)”: 1.71.

Study 4
Target: Fragile X messenger ribonucleoprotein 1, C-terminal low-complexity region (Fmr1, Mus musculus, UniProt P35922)
Method: RNA Bind-n-Seq
Molecule type: RNA
Medium: in vitro
Concentration: 200 nM
Setting: whole 134-nt RNA, ends assumed
Together with: 150 mM KCl
Reference: input library
Direction: higher = stronger binding
For `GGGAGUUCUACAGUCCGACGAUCGUUAAUUCCACCAUCCCCAUCACAGCAGAAGUUUUCAAGAAGCAUGGAGUGUACAACCCCAACAAAAUCUUCGGCGUGACGACCCUGGACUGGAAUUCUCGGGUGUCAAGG`, the log2 enrichment was 0.555.
The log2 enrichment of `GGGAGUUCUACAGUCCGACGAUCUCAAGUCCUGUGCUACACAUCGUAUGUACCGAAUCGGGUUUGGUUUGGGUUUGGGAAAGUAUUAUGUUACGCCGUUCGGAUCUGCACUUCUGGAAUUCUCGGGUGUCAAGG` is reported as -0.478.
`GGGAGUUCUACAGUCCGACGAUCCAAGUCCUGUGCUACACAUCGUAUGUACCGAAUCGGGUGGGUUUUUUUGGGUGGGAAAGUAUUAUGUUACGCCGUUCGGAUCUGCACUUCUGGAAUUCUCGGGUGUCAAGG` gave a log2 enrichment of 0.663.
With `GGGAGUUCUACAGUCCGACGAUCUUAAUGAUAUAAGUAGAGAGUAGUAUCCUGGUGGAGUUGUAACCACUAUUUUUGUUUUCUAGAUCCCUAUGGUUCAGGAGGCCAGAAAUUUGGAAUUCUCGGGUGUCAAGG` the log2 enrichment was -0.715.
With `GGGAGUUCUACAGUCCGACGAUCCAAGUCCUGUGCUACACAUCGUAUGUACCGAAUCAAACCCAAAUUUAAAUUUAAAAAAGUAUUAUGUUACGCCGUUCGGAUCUGCACUUCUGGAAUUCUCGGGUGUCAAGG` the log2 enrichment was 0.335.
With `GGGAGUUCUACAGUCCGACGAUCUCAAGUCCUGUGCUACACAUCGUAUGUACCGAAUCGGGGCCCGGCCCGGGCCCGGAAAGUAUUAUGUUACGCCGUUCGGAUCUGCACUUCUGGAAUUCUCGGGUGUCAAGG` the log2 enrichment was -1.33.
With `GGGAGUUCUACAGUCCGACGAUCAAGUCCUGUGCUACACAUCGUAUGUACCGAAUCAAAUUUUUAAAUUUAAAUUUAAAAAAGUAUUAUGUUACGCCGUUCGGAUCUGCACUUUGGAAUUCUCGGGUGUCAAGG` the log2 enrichment was -1.34.
The log2 enrichment of `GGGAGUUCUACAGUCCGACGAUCUGGCCCGGGUGGCAUGCGGGGAGGAAGAGGUGGCCUCAUGGAUCGUGGUGGUCCCGGUGGAAUGUUCAGAGGUGGCCGUGGUGGAGACAGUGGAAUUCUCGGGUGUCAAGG` is reported as 0.615.
The log2 enrichment of `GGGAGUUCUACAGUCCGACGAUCUAACUUUAGAGGAGGAUCUGAUGGAUAUGGCAGUGGACGUGGAGUUGGGGAUGGCUAUAAUGGGUAUGGAGGAGGACCUGGAGGUGGCAAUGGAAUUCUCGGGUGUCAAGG` is reported as 0.378.

Repeated from above (study 3):
`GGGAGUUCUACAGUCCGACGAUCAUGGCCCAGUAUCCUUGGUUGUGGAUAGGGUCAUCCCUGGCUCCUCACCCAGCACCCAGCUUAACCCUGCCACCCCACACUCCUGGGAGCACUGGGCUGAGGGGGUCUCAUGGAAUUCUCGGGUGCCAA` — result for “RBNS enrichment (R)”: 0.39.
Under “RBNS enrichment (R)”, `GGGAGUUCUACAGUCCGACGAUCGAGCGUUAUUAACCCAAAGCAGAACAAUGGUGCCAAUUUGAUUAUUAACUUAAAAAAAUAUACACUGCUUCCCAUAAACUGCUAGUUCAUCUCUCGGUACAAAGGAGUUAUGGAAUUCUCGGGUGCCAA` is recorded as 0.261.
`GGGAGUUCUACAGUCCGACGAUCAGCUUUACAGAAAAUCAUUGUAAGACAAUUUAUUAAUUUGAGAAAGUCACCUUGACAGUUCUUUGCACACAAGUUUUACACCUCUCUGGAUUCGAAGUUUGUAUUGUAUUUGGAAUUCUCGGGUGCCAA` — result for “RBNS enrichment (R)”: 1.71.
For `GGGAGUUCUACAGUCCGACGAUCUUUUCUGAUAAUUAUUUUUGCCUGUCAUCCCAAAAACGUAUUGACAUGCGUGUAUAUUACCUGUGAGUGAGAGUUCUUAGAAACUUGGCCAGAGAGGAUAAAGGGGAGAGUGGAAUUCUCGGGUGCCAA`, “RBNS enrichment (R)” read 0.661.
